# Experimental data gathered from unrelated publications.
# Protocols differ between the studies behind these lines. “And” joins repeats or separate records; there may be more than shown. Numbers after ± are the reported error.
# Cell line: RAW264.7
SMILES,assay,test system,conditions,how to read,measurement,value
CC#CC#C/C=C1/O[C@]2(CC[C@H](OC(C)=O)CO2)[C@@H](O)[C@@H]1OC(=O)CC(C)C (stereo in doubt),MTT,DMEM with 10% FBS,"50 µM, 18 h, with: LPS 1 µg/mL",reference: DMSO,viability,92 ± 7.1%
C/C=C(/NC(=O)CCCCCCC)C(=O)N/C(=C/C)C(=O)N[C@@H](C(=O)N[C@H](C(=O)Nc1ccc(C(=O)N[C@H](C(=O)O)[C@@H](C)O)cc1)C(C)C)[C@@H](O)C(C)C,"cytotoxicity, MTT",,,,IC50,48.7 ± 3.2 µM
COC1OC(C)C(OC2OC(C)C(O)C(OC3OC(C)C(OC4OC(C)C(O)C(OC5OC(C)C(OC6OC(C)C(O)C(OC7OC(C)C(OC8OC(C)C(O)C(OS(=O)(=O)O)C8OS(=O)(=O)O)C(OS(=O)(=O)O)C7OS(=O)(=O)O)C6OS(=O)(=O)O)C(OS(=O)(=O)O)C5OS(=O)(=O)O)C4OS(=O)(=O)O)C(OS(=O)(=O)O)C3OS(=O)(=O)O)C2OS(=O)(=O)O)C(OS(=O)(=O)O)C1OS(=O)(=O)O (centres unmarked),CCK-8,,"concentration not given, 24 h, high concentration",reference: untreated cells,viability,82.5% and 93.6% and 79.3%
C/C=C(/NC(=O)CCCCCCC)C(=O)N/C(=C/C)C(=O)N[C@@H](C(=O)N[C@H](C(=O)Nc1ccc(C(=O)N[C@H](C(=O)O)[C@@H](C)O)cc1)c1ccc(O)cc1)[C@@H](O)C(C)C,"cytotoxicity, MTT",,,,IC50,> 100 µM
CC#CC#C/C=C1/O[C@@]2(CC[C@@H](OC(C)=O)CO2)[C@H](O)[C@H]1OC(C)=O,MTT,DMEM with 10% FBS,"50 µM, 18 h, with: LPS 1 µg/mL",reference: DMSO,viability,95.3 ± 13.3%
C/C=C(/NC(=O)CCCCCCC)C(=O)N/C(=C/C)C(=O)N[C@H](CC(C)C)C(=O)N[C@H](C(=O)Nc1ccc(C(=O)N[C@H](C(=O)O)[C@@H](C)O)cc1)[C@@H](C)CC,"cytotoxicity, MTT",,,,IC50,> 100 µM
CC#CC#C/C=C1/O[C@@]2(CCCCO2)[C@@H](OC(C)=O)[C@@H]1O,MTT,DMEM with 10% FBS,"50 µM, 18 h, with: LPS 1 µg/mL",reference: DMSO,viability,91.6 ± 8.2%
C/C=C(/NC(=O)CCCCCCC)C(=O)N/C(=C/C)C(=O)N[C@H](CC(C)C)C(=O)N[C@H](C(=O)Nc1ccc(C(=O)N[C@H](C(=O)O)[C@@H](C)O)cc1)C(C)C,"cytotoxicity, MTT",,,,IC50,65.8 ± 1.7 µM
COC1OC(C)C(OC2OC(C)C(OS(=O)(=O)O)C(OC3OC(C)C(OC4OC(C)C(OS(=O)(=O)O)C(OC5OC(C)C(OC6OC(C)C(OS(=O)(=O)O)C(OC7OC(C)C(OS(=O)(=O)O)C(OS(=O)(=O)O)C7OS(=O)(=O)O)C6OS(=O)(=O)O)C(OS(=O)(=O)O)C5OS(=O)(=O)O)C4OS(=O)(=O)O)C(OS(=O)(=O)O)C3OS(=O)(=O)O)C2OS(=O)(=O)O)C(OS(=O)(=O)O)C1OS(=O)(=O)O (centres unmarked),CCK-8,,"concentration not given, 24 h, low concentration",reference: untreated cells,viability,111% and 124% and 104%
CC#CC#C/C=C1/O[C@@]2(CCCCO2)[C@@H](O)[C@@H]1OC(C)=O,MTT,DMEM with 10% FBS,"50 µM, 18 h, with: LPS 1 µg/mL",reference: DMSO,viability,94.3 ± 6.8%
COC1OC(C)C(OS(=O)(=O)O)C(OC2OC(C)C(OS(=O)(=O)O)C(OC3OC(C)C(OS(=O)(=O)O)C(OC4OC(C)C(OS(=O)(=O)O)C(OC5OC(C)C(OS(=O)(=O)O)C(OC6OC(C)C(OS(=O)(=O)O)C(OC7OC(C)C(OS(=O)(=O)O)C(OC8OC(C)C(OS(=O)(=O)O)C(OC9OC(C)C(OS(=O)(=O)O)C(OC%10OC(C)C(OS(=O)(=O)O)C(OS(=O)(=O)O)C%10OS(=O)(=O)O)C9OS(=O)(=O)O)C8OS(=O)(=O)O)C7OS(=O)(=O)O)C6OS(=O)(=O)O)C5OS(=O)(=O)O)C4OS(=O)(=O)O)C3OS(=O)(=O)O)C2OS(=O)(=O)O)C1OS(=O)(=O)O (centres unmarked),CCK-8,,"concentration not given, 24 h, high concentration",reference: untreated cells,viability,111% and 128% and 108%
COc1cc2c(cc1OC)-c1c(oc3c4c(cc(O)c3c1=O)OC(C)(C)C=C4)CO2,"cell growth or viability, MTT",,"100 µg/mL, 24 h",,viability,72.2%
COC1OC(C)C(OS(=O)(=O)O)C(OC2OC(C)C(OS(=O)(=O)O)C(OC3OC(C)C(OS(=O)(=O)O)C(OC4OC(C)C(OS(=O)(=O)O)C(OC5OC(C)C(OS(=O)(=O)O)C(OC6OC(C)C(OS(=O)(=O)O)C(OC7OC(C)C(OS(=O)(=O)O)C(OC8OC(C)C(OS(=O)(=O)O)C(OS(=O)(=O)O)C8OS(=O)(=O)O)C7OS(=O)(=O)O)C6OS(=O)(=O)O)C5OS(=O)(=O)O)C4OS(=O)(=O)O)C3OS(=O)(=O)O)C2OS(=O)(=O)O)C1OS(=O)(=O)O (centres unmarked),CCK-8,,"concentration not given, 24 h, high concentration",reference: untreated cells,viability,102% and 106% and 101%
COc1cc(OC)c(-c2coc3c4c(cc(O)c3c2=O)OC(C)(C)C=C4)cc1OC,"cell growth or viability, MTT",,"100 µg/mL, 24 h",,viability,62.9%

# Excerpt of the above:
SMILES,assay,test system,conditions,how to read,measurement,value
COc1cc2c(cc1OC)-c1c(oc3c4c(cc(O)c3c1=O)OC(C)(C)C=C4)CO2,"cell growth or viability, MTT",,"100 µg/mL, 24 h",,viability,72.2%
COC1OC(C)C(OS(=O)(=O)O)C(OC2OC(C)C(OS(=O)(=O)O)C(OC3OC(C)C(OS(=O)(=O)O)C(OC4OC(C)C(OS(=O)(=O)O)C(OC5OC(C)C(OS(=O)(=O)O)C(OC6OC(C)C(OS(=O)(=O)O)C(OC7OC(C)C(OS(=O)(=O)O)C(OC8OC(C)C(OS(=O)(=O)O)C(OS(=O)(=O)O)C8OS(=O)(=O)O)C7OS(=O)(=O)O)C6OS(=O)(=O)O)C5OS(=O)(=O)O)C4OS(=O)(=O)O)C3OS(=O)(=O)O)C2OS(=O)(=O)O)C1OS(=O)(=O)O (centres unmarked),CCK-8,,"concentration not given, 24 h, high concentration",reference: untreated cells,viability,102% and 106% and 101%
